Assay results of several laboratories.
Every numbered part comes from another study and shows a few of its results, in no order. Positions count from the first letter of the parent shown.

Study 1 — target: ATF7, bZIP domain (human); method: DHFR protein complementation; sample: yeast; relative to: wild-type JUN-FOS pair; direction: higher = stronger binding; quantity: binding fitness
Setting: single substitutions, most at no-binding floor
Parent: JUN, bZIP domain (human); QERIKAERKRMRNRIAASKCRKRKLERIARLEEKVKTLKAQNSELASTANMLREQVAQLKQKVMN; partner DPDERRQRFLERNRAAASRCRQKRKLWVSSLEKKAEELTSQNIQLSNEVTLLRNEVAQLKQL
L59W: -1.32 natural log
E33N: -1.23 natural log
A46W: -1.22 natural log
I28V: -0.876 natural log
R53L: -1.47 natural log
Q41L: -1.09 natural log
A40C: -1.21 natural log
Q55T: -1.06 natural log
A46Q: -0.708 natural log
S43M: -0.826 natural log
T37N: -0.794 natural log
T37C: -0.767 natural log
S47F: -0.962 natural log
E44K: -0.989 natural log
L31C: -1.4 natural log
T48E: -0.773 natural log
L31M: -1.18 natural log
L45Y: -1.34 natural log
K36F: -1.2 natural log
Q41T: -1.02 natural log
L31W: -1.36 natural log
K39C: -1.08 natural log

Study 2 — method: protein-binding microarray; form: double-stranded DNA, one strand shown; sample: in vitro; tested at: 250 nM; setting: 60-bp whole probe; with: salmon DNA 0.4 mg/ml; relative to: random background probes; direction: higher = stronger binding; quantity: log fluorescence; constant ends, left off below: GCCTAGCAC … GTCTTGATTCGCTTGACGCTGCTG
Target: Interferon regulatory factor 5, full length, phosphomimetic (IRF5, Homo sapiens, UniProt Q13568-2, residues 1-514, K96S/S451D/S453D/S456D/S462D)
TGGACTGCACAAGGGCCAGTGTGCTAG: -0.602 z-score
GACGGTATCCTAATCCTGACGTGCTAG: -0.0241 z-score
TTTCATATATATATGAATATGTGCTAG: 7.9 z-score
TTAGGACTGAGGACTGGGTTAGTGCTA: -0.707 z-score
TTAGGTTTCGGGTATCGGCTAGTGCTA: 8.73 z-score
GACTATTTCAGTTCCGAGACGTGCTAG: 1.39 z-score
AGCACTCCAGAGGCAGAGGCGTGCTAG: -0.536 z-score
GACGATTTCAGTTTTGAGACGTGCTAG: 1.48 z-score
CACGATATCGGGTTTCGAGACGTGCTA: 3.47 z-score
GACGGTATCCTTATCCTGAAGTGCTAG: 0.0418 z-score
GGGTCACTCAATCTCAACAGGTGCTAG: -0.478 z-score
TTAGATCGCAGACTGGATTAGTGCTAG: -0.297 z-score
GACGATATCAATATCGAGACGTGCTAG: 2.27 z-score
TCATCTCTAGAAATTCCCACTGTGCTA: 0.377 z-score
TTAGGTAACGGACTGGGTTAGTGCTAG: -0.247 z-score
CTTGGGCTCTTCTCTGAAGACGTGCTA: -0.598 z-score
CATTGCTTGTGTTTATTGTGGTGCTAG: 0.389 z-score
TTAGATATCGGTATCGATTAGTGCTAG: 8.83 z-score
GACGGTTTCGGTCTCAGGACGTGCTAG: 9.54 z-score

Study 3 — method: RNAcompete; form: RNA; sample: in vitro; tested at: 20 nM; setting: 7-mer, probes averaged, single round; relative to: mean of 7-mers; direction: higher = stronger binding; quantity: 7-mer Z-score
Target: PABPC1L2, full length, GST fusion (mouse, UniProt A0ABA7IW68)
Residues (chain): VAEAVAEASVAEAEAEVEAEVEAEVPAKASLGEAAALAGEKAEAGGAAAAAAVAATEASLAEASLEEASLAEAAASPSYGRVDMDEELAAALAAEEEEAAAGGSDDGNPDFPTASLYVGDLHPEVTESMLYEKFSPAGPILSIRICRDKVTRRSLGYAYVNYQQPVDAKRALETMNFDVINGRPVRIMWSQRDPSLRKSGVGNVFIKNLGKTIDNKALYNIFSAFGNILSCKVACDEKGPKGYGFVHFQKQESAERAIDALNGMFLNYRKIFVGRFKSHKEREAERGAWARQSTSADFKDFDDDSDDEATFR
UCGGCAG: 0.142
GCAGUGU: 0.0424
CCGCACC: -0.374
CGGCCAU: -0.257
CUUGGCG: -0.0681
UAGAGUU: -0.188
AGAUGAU: -0.184
UUCCGAC: -0.168
UUAUUGG: -0.0228
GCCCUGG: -0.287
GUUGUGG: -0.222
AAUUGUA: 0.175
CGUUGGU: -0.182
AUUUUAU: 0.0225
GAUUUGC: -0.403
CGGUGCC: -0.142

Study 4 — method: universal PBM; form: double-stranded DNA, one strand shown; sample: in vitro; tested at: not given; direction: higher = stronger binding; quantity: E-score
Target: Sal-like protein 4, full length isoform B (SALL4, Homo sapiens, UniProt Q9UJQ4-2, residues 1-616)
Setting: 8-mer, flanks averaged, mean of replicates
GAGCCCGC: -0.374
TCTAGGAA: 0.103
CAGCTGAG: -0.185
CGGTTCAA: -0.184
GAGGAATA: 0.167
AATGGCTA: 0.139
ATCGTACA: 0.258
AAAGATCT: 0.00791
ACGGGGGA: 0.00102
CGTTGGAA: -0.0607
ATCGTGTC: 0.0299
CCATGGCC: -0.32
GATTAGTA: 0.2
TCCATAAA: 0.273
ACTGGAGG: -0.125
ATACAGCA: 0.219
GCCCATGA: -0.279
AGTCCCTC: -0.203
ACCGCTTA: -0.12
GTGGCTGA: -0.152

Study 5 — method: protein binding microarray; form: double-stranded DNA, one strand shown; sample: in vitro; tested at: not given; relative to: not given; direction: higher = stronger binding; quantity: E-score
Target: Histone acetyltransferase KAT6A, winged helix 2, GST fusion (KAT6A, Homo sapiens, UniProt Q92794, residues 85-181)
Setting: 8-mer, flanks averaged, mean of 2 arrays, mostly near background
Target sequence (chain): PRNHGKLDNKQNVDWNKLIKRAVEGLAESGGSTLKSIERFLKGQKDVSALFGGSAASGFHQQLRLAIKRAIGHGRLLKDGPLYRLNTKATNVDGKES
GATGACCC: 0.113
AATCGTTG: -0.0975
GCTGCAGC: -0.0767
GAAATAGC: 0.0277
AACACCGG: 0.219
AATGCAGT: -0.0371
ACCGTTTG: -0.0589
CGCACCTC: 0.00739
AACGTAGG: -0.187
CACAACGC: 0.00858
GCACCTGC: 0.138
AAGCGGCC: -0.13
CTAACCTC: -0.12
GGGCGAGA: 0.0469
AGAGACCT: -0.197
GGGCTAAA: 0.0143
ACCTAGCT: -0.088
GAATTGTA: 0.0452
ACAGCAAC: 0.137
AAGCAGCG: 0.159
CGTCGACA: -0.0725
CGGCAAAA: -0.0417
CGAATCTA: -0.0668
AGAGGAGA: -0.127
GCGGATCA: 0.109

Study 6 — method: RNA Bind-n-Seq; form: RNA; sample: in vitro; tested at: 365 nM; relative to: no-protein control; direction: higher = stronger binding; quantity: RBNS enrichment (R)
Target: RNA binding protein fox-1 homolog 2, RRM domain, GST-SBP tag (RBFOX2, Homo sapiens, UniProt O43251-10, residues 100-194)
Setting: natural RNA segment, single round, ends assumed
Constant ends, left off below: GGGAGUUCUACAGUCCGACGAUC … UGGAAUUCUCGGGUGCCAA
Residues (chain): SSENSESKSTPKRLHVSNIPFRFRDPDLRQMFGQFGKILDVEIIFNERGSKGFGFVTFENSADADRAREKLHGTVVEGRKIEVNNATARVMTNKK
CUAUUCUAAGUAGAAUGUUCAAUGUAACUGACUAAAAUUGCAUGUUAAAGAUAUUUAGGUUUUUUUGUUUUCUUUAUUUUUAUUUGUUUUCAGUUUCCUGUAUAUUUGCU: 60.3
UCUGUGCCACGUGUUUGUGCUGUGGUGUGUCCCCCUCUGUCCAGGCACUGAGAUACCAGCGAGGAGGCUCCAGAGGGCACUCUGCUUGUUAUUAGAGAUUACCUCCUGAG: 0.876
CGCCCCUUCCCUCCAGGAUCAGAAGCAGCACCCACCCUUGCCAUGAUAAACAUUCCAUCCCCUGCUGUUCUGAUAAUGUGAAGUCAGAUGAGGGUUCCCAGGUUAUGUGG: 1.46
GGGGGGAGCACAUAUGCAUAUAUAUAUAUGAGAAUAGCCAACUUCUACAGAAAAAAGACAAGUGGAAGUGGUUUACCAAUACCUAGCAUGGUACAAUCAGAGCUCCGUGG: 0.974
UACAAGGACCUGCUUUUUAAAAGGCCAGAACAAUUGUCUGAAAUUAGUAACAAUGCUGCAUCUAGAUUGGAGUGCUGCACAAACAAACAUAAGAGCAAAGCAAAACUGUA: 0.665
GCACAUAGGCCAGUCCGAGUUCUUUCUUAACAAGAUGGCUGUUCUGGCCUGGCCAGCAGUCUGCAUGCUGAAGCUGCACCAAAGACAAGCGAAUGGGUCAUUUCUAAAGA: 10.8
CAUCAGUGUCUCUGCUGUACUGGAAGCCACCUCUGGUUUUCCUCUGAAAUAUUAAAAGACAGAAUCCAAAGAACGCCUUUAACUCUAGUCUUAUUAGGAUGAUUUUCUAU: 0.411
UUCUUCAUGGGAAAUGUUAAAAGUUUAGCAUGUAACAUGUAAAUAUGUUGUACUUAAUGUUGAUCUCAAAACUUUAUUAUCUAGAUAUAAGAAAAAUUACUUUUUACUUC: 1.03
CAGAAGUGCAUCGGGAUUCAGAAUGACCAACCUAAGAAGCACAAAUUUAGUUUGGGUGUUCCUCAUCACAUGUAUAUACGGACUAUCCAUUGAACUUAAUCUGUGUGGCU: 0.228
CCAUGUGUAACAGAGCUUAGACAUCCAAAACUAAUCAAUGCUGAGGUGGCUAAAUACCUAGCCUUUUACAUGUAAACCUGUCUGCAAAAUUAGCUUUUUUAAAAAAAAAA: 0.559
AACUCCCUGAAAUCUGGAAUCAGGGUGGAAACAGCCUGUUUUUCCCAUUUAAACAGGAGUCCUCUUCAACUUCAGCUGAUUACAAUAACAAAAGGCGGAAUUGAAUUGUG: 0.199
UCUACCCGCCUUUCCUGACUCUGUGUUUUAUAUAUAUUAUAUAUAAAUAUAUAUUGUGUACGGCCGCCGGCCGGCGGCUCGAGGCACGCCCGGUGGUGGGGGGUGGGCAG: 0.63
